Measured values of several laboratories.
Every numbered part comes from another study and shows a few of its results, in no order. Substitutions count along the parent as printed.

Sample 1
Target: CCNE1, cyclin fold, Cln2 fusion (human)
Method: yeast growth competition, sequencing
Sample: yeast
Setting: strong parent motif
Reference: not given
Reading: higher = stronger binding
Starting sequence: TICRR docking peptide (human); TKVRRNLFNQELL
Change | normalised enrichment score
TKVRRNAFNQELL [L7A] | -0.118
TKVRRNLFNQEAL [L12A] | 1.34
TKVARNLFNQELL [R4A] | 0.585
TKVRRNLANQELL [F8A] | -0.276
TKARRNLFNQELL [V3A] | 0.43
TKVRKNLFNQELL [R5K] | 0.116
TKVRKNLLNQELL [R5K F8L] | 0.391
TKVRRALFNQELL [N6A] | 1.68
TKVRANAFNQELL [R5A L7A] | -0.234
AKVRRNLFNQELL [T1A] | 1.62

Sample 2
Target: Sal-like protein 4, full length isoform B (SALL4, Homo sapiens, UniProt Q9UJQ4-2, residues 1-616)
Method: universal PBM
Molecule type: double-stranded DNA, one strand shown
Sample: in vitro
Tested at: not given
Setting: 8-mer, flanks averaged, mean of replicates
Reading: higher = stronger binding
Residues (chain): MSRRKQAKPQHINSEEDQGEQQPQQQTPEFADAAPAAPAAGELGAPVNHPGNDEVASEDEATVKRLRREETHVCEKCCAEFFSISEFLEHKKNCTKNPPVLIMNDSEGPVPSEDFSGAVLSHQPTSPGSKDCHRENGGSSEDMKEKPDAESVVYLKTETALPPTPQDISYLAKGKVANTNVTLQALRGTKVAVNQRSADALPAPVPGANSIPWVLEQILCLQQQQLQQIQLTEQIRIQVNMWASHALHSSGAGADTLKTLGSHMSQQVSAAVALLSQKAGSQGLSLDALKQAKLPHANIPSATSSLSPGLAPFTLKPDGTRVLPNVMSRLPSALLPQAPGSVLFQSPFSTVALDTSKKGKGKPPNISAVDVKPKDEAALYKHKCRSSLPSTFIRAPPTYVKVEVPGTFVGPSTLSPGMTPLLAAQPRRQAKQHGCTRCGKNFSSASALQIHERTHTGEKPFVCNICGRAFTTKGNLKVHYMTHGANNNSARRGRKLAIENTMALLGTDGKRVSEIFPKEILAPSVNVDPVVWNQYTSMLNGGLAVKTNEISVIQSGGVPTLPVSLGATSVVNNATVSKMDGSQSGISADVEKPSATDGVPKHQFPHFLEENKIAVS
Sequence | E-score
CGGCGGAA | -0.251
AAGTCCTC | -0.176
TATTGTAA | 0.34
AGAACTAC | 0.0546
CGTCACTA | 0.0558
ACGCGGGG | -0.284
GAGTAGAA | 0.0568
TAGAACTA | 0.0762
CCCCATGA | -0.0975
ATGTGAGC | -0.118
GTTAGTCA | 0.0528
CTTAGTAA | 0.0653
CGGTAGGC | -0.238
ATCTAGTA | 0.234
GCAGTGGC | -0.323
CGCCTCTC | -0.298
CCTGATAG | -0.142
CTGACTTA | 0.13
CTAGAACC | -0.215
GCTTATCC | -0.0141
AACCCCAG | -0.194
ACCATCTA | 0.0104
GCTGCCCA | -0.31
ACCACAAT | 0.0655

Sample 3
Target: Interferon regulatory factor 7, full length, phosphomimetic (IRF7, Homo sapiens, UniProt Q92985, residues 1-503, S471D/S472D/S475D/S476D/S477D/S483D/S484D/S487D)
Method: protein-binding microarray
Molecule type: double-stranded DNA, one strand shown
Sample: in vitro
Tested at: 2200 nM top
Setting: 60-bp whole probe
Together with: salmon DNA 0.4 mg/ml
Reference: random background probes
Reading: higher = stronger binding
Constant ends, left off below: GCCTAGCAC … GTCTTGATTCGCTTGACGCTGCTG
Construct (chain): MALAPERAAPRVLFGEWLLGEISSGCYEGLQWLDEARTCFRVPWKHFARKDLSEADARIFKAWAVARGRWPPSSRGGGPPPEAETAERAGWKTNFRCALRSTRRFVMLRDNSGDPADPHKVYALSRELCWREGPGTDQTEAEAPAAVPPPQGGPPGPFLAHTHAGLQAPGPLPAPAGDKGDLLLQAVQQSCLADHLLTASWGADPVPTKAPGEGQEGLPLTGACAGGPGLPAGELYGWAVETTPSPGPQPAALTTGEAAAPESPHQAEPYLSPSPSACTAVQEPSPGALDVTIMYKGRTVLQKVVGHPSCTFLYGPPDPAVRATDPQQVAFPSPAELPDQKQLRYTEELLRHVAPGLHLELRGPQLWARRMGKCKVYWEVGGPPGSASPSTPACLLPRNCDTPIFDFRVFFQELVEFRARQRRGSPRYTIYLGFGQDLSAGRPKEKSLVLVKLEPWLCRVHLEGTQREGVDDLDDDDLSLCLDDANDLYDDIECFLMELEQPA
Sequence | fitted relative affinity [z-score]
CATTGCCTATTTTTCCCCTGGTGCTAG | 1.6
AACGGTCTCGGTATCGGGACGTGCTAG | 0.376
TTAGGTCTCGGGACTGGGTTAGTGCTA | -0.423
TCACTCTTCCTTTACTTACTGTGCTAG | 2.67
TCAAGAATGCCTTTAATACTGTGCTAG | -0.0865
GACGGTATCTGTCTCGGGACGTGCTAG | 0.239
ACCAAAATCAAGTCTGGGCTAGTGCTA | -0.512
GACGGTATCGGGACTGGGGCCGTGCTA | -0.745
GACGGTATCGACTTTCGGAACGTGCTA | 3.78
GACGGACTCCTACTGCTGACGTGCTAG | 0.439
TCAAGCCTCAGTCCTCACACTGTGCTA | 0.678
TTAGATCACAGTTTCGATTAGTGCTAG | 4.9
GACGGACTGGGTTTGGGGACGTGCTAG | -0.814
TTAAATTTCAGTCTCGATTAGTGCTAG | 0.598
TCATATATATATTATATAACTGTGCTA | 0.283
TAGTTTTCATTTTCTGAATGTGTGCTA | 6.72
GACGGTTTCGACTATCTGGACGTGCTA | 3.33
TTAGATATCAGTTCCGATTAGTGCTAG | 0.958
TTAGGGATCGGGTATCGGTTAGTGCTA | -0.278

Sample 4
Target: ABI1, truncated, D143A, DHFR fusion (Arabidopsis thaliana)
Method: DHFR PCA, deep sequencing
Sample: yeast
Setting: methotrexate growth selection, single substitutions
Together with: (+)-ABA 0 µM
Reference: wild-type fitted maximum
Reading: higher = stronger binding
Starting sequence: PYL1, truncated, DHFR fusion (Arabidopsis thaliana); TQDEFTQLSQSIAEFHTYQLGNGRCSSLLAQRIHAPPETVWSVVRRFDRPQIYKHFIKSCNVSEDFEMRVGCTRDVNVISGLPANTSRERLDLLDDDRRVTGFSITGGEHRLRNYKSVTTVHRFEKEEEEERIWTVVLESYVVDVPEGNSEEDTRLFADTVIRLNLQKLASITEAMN; partner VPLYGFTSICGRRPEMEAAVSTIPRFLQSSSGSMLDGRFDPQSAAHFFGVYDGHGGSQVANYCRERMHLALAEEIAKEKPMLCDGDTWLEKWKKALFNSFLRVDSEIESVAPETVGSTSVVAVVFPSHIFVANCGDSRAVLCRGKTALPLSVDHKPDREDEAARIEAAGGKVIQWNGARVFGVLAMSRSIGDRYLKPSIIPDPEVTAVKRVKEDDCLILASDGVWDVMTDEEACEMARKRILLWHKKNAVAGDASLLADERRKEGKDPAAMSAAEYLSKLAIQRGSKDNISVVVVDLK
Change | relative binding score [%]
R99T | -0.427
Y115W | -0.495
N177C | 25.4
F157T | 5.61
Y53F | 4.84
T119S | -4.49
G23L | 2.24
T73W | 17.9
V121S | 2.42
S140R | 7.92
F103A | -4.41
E125V | 38.8
T119A | -4.46
Q2I | 68.6
L8G | -2.59
G107R | 0.843
V118L | -2.05
S27Q | -1.18
C25W | -1.67
R32P | 4.8
E89C | -2.67
S11L | 3.11

Sample 5
Target: RING finger protein unkempt homolog, zinc fingers 1-6, GST-SBP tag (UNK, Homo sapiens, UniProt Q9C0B0, residues 30-357)
Method: RNA Bind-n-Seq
Molecule type: RNA
Sample: in vitro
Tested at: not given
Setting: RNA with constant flanks, human and mouse sites, ends assumed
Reference: input RNA pool
Reading: higher = stronger binding
Residues (chain): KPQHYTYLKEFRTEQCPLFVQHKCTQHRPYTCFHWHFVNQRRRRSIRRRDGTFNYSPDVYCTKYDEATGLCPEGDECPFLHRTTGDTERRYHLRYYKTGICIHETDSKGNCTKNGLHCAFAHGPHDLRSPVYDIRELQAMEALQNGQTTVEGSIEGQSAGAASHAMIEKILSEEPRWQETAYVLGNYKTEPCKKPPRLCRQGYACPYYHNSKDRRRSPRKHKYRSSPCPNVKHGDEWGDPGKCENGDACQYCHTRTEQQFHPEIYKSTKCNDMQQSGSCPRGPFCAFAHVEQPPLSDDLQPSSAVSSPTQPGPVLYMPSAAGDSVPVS
Sequence | bound/input enrichment
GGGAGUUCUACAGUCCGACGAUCUGGGACCCCACUUGCAUGAAGAUGGACGAGGUUCUGUACAGCAUCGCCGAAAAGGUUAAAAAUUUUGCAGUUAUUUAUCUUGUGGAUAUUACAGAAGUGCCUGACUUCAACAAGAUGUACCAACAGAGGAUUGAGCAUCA | 0.243 ratio
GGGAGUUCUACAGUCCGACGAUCUCUGGCGUGCCCCUCUUUUAUUUCUUCAACUGGAAUUUUCUCCUUCUACGCACCCUGCAGUUAGUCCUCGAAAGCAUGGACUCAUGGCUGUCGCCAACCCCACUGACACAGUCUGUCCUACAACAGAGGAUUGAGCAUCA | 0.458 ratio
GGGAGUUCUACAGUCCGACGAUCCAACAAGCUGGCCAUGAUGAAGGUGUUCUGGAUCGUCUUGUGGACAGGAGGGAACGGCCACUAGAAGGUGGCCGAACUAAUUCCAAUAACAACAACAGCAAUCCAUGUUCAGAACAAGAUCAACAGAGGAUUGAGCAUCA | 0.0766 ratio
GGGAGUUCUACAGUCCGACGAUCUUUUUUUUUCCUCUUAACUCUGUCUGCUCUUAAAGCCAGGCAACCCAGUUUGGUCUCAGGCAUAGCCUGAGCAGAUCUUAGUUUUGCCCCCACCACCAUAGUUUUGUGCUAUCCUAGUUUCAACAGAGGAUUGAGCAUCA | 6.34 ratio
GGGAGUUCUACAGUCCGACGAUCUCGGUUUUACACUCGGGAAGCAUUAACAGUGAGACACUAUUGUUUUUCUACUUGUGUGUGUAGUACAGGAAUUAUUCAGAUGCCACGUUUGAAUAAUUCAGAGUGAUGUUAUCUGUGAUACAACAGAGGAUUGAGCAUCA | 0.149 ratio
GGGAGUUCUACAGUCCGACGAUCCGGUUUCUUUGCUUUGUGUUCCAUGCAUCUCAUUCUGGCCUCUCCAGAUGGUCUCUUGUGAGAGUCAGGCUGUCCAGGCUGGGAUGCAGAUGGGAACCUCUGACUGACUUGAGGGCAGAACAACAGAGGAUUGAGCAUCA | 0.0976 ratio
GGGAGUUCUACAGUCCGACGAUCUCCAUGUCAGAAGACAAUCGCCCUUUAACUGGACUUGCAGCUGCAAUUGCCGGAGCAAAACUUAGGAAAGUGUCACGGAUGGAGGAUACCUCUUUCCCAAGUGGAGGGAAUGCUAUUGGUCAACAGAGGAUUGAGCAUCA | 0.24 ratio
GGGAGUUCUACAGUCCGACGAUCGGUACCAGAUUUUCAGGGGUUGAUAUGAAUGCUGCUAGGCUUUUAUUCCACAAACUUAUACAACCUGAUCAUCCGCAGAUAUCUCAGCAGGUGGCAGCUAGUUUGGAAAAGAAUCUUAUUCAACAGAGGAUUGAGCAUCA | 0.162 ratio

Single results of other studies
Molecule | target | assay | test system | conditions | how to read | quantity | value
PhoQ, residues 284 288 289 292 302 303 SIHMAM | PhoP, residues 12 14 15 18 19 NQGLL (Escherichia coli, UniProt P23836) | Sort-seq, refers to: YFP reporter | E. coli | PhoQ-PhoP variant library, together with: 10 µM Mg2+ | reference: high Mg2+ state, higher = stronger signaling | fold induction | 4.89

Excerpt of the above (sample 4):
Change | relative binding score [%]
G107R | 0.843
Y115W | -0.495
F157T | 5.61
G23L | 2.24
L8G | -2.59
S27Q | -1.18
S11L | 3.11
E89C | -2.67
Y53F | 4.84
R32P | 4.8
